Measurements of several laboratories.
Lines come from different studies, so protocols differ.
Target: Serine/threonine-protein kinase WNK1 (WNK1, Homo sapiens, UniProt Q9H4A3)

Compound = COc1c(Cl)cccc1Nc1c(-c2ccncc2C#C[C@@]2(C)CCCN2C(=O)/C=C/CN(C)C)[nH]c2c1C(=O)NCC2; test = binding, competition with immobilised ligand; setting = 3 µM; endpoint = remaining binding; value = 98%
Compound = O=C(Cc1ccc(OCc2ccccc2)cc1)NC1(C(=O)O)CCN(C(=O)c2ccc(-c3cccc(Cl)c3)cc2)CC1; test = enzyme activity, inhibitor; setting = 10 µM; endpoint = activity vs control; value = 95%
Compound = CNC1C[S+]2CC[S+]3CC[S+](C1)[Ru-4]321([N]=C=S)[n]2c3ccc(OC)cc3c3c4c(c5cc(F)c[n+]1c5c32)C(=O)NC4=O (centres unmarked); test = KinomeScan; setting = 0.1 µM; how to read = baseline: untreated; endpoint = remaining binding; value = 100%
Compound = CNC(=O)C[C@H](Cc1ccc(C#N)cc1)NC(=O)c1cc(-c2ccc(CN[C@H](C)c3ccc(C)cc3)o2)ccc1Cl; test = enzyme activity, inhibitor; setting = 1 µM; endpoint = activity vs control; value = 94%
Compound = C[C@H]1CN(C(=O)c2cn(-c3ccnc(N)n3)c3cc(C#CC4(O)CCCCC4)ccc23)CCN1; test = cell-free assay, TR-FRET; setting = 1 µM; endpoint = inhibition; value = 2%
Compound = Nc1ncc2c(n1)-c1c([nH]c3ccc(C4=CCOCC4)cc13)CCC2; test = binding, competition with immobilised ligand; setting = 1 µM; endpoint = remaining binding; value = 100%
Compound = C=CC(=O)N1Cc2nc(-c3cc(-c4cc(Cl)cnc4Cl)c(F)cc3F)n(-c3ccncn3)c2C1; test = cell-free assay, inhibitor; setting = 1 µM; endpoint = inhibition; value = -0.8%
Compound = CCN1CCN(Cc2ccc(NC(=O)c3ccc(C)c(NC(=O)c4cncc(-c5cnn(C)c5)c4)c3)cc2C(F)(F)F)CC1; test = binding, competition with immobilised ligand; setting = 1 µM; endpoint = remaining binding; value = 77%
Compound = C=CC(=O)N1CCCC(n2c(=O)c3ncccc3n(Cc3ccc(Oc4ccccc4)cc3)c2=O)C1 (centres unmarked); test = cell-free assay, competition with immobilised ligand; setting = 1 µM; endpoint = remaining binding; value = 79%
Compound = NC(=O)C[C@H]1CCc2sc3ncnc(O[C@H]4CC[C@H](N5CCOCC5)CC4)c3c21; test = enzyme activity, inhibitor; setting = 10 µM; endpoint = inhibition; value = 1%
Compound = COc1cc(Nc2nc(C)cc(-c3cnn4nc(OC)ccc34)n2)cc(C(F)(F)F)c1; test = binding, competition with immobilised ligand; setting = 1 µM; endpoint = remaining binding; value = 66%
Compound = Cc1cnc2nc1Nc1cccc(c1)COC/C=C/COCc1cc(ccc1OCCN1CCOCC1)N2; test = cell-free assay; setting = 0.1 µM; endpoint = remaining signal; value = 85%
Compound = O=C(Nc1ccc(Oc2ncnc3[nH]cc(-c4ccccc4)c23)c(F)c1)c1c2n(n(-c3cc(F)ccc3F)c1=O)CCCC2; test = enzyme activity, inhibitor; setting = 0.5 µM; endpoint = inhibition; value = 14%
Compound = CCN1CCN(Cc2ccc(C(=O)Nc3ccc(C)c(NCc4cnc5[nH]ccc5c4OC)c3)cc2C(F)(F)F)CC1; test = binding, competition with immobilised ligand; setting = 1 µM; endpoint = remaining binding; value = 81%
Compound = COc1cc(Nc2nccc(-c3cnn4nc(OC)ccc34)n2)cc(C(F)(F)F)c1; test = binding, competition with immobilised ligand; setting = 1 µM; endpoint = remaining binding; value = 98%
Compound = CN1CC[C@@H](COc2cnc(C#N)cc2-c2ccn3nc(NC(=O)C4CC4)cc3c2)C1; test = enzyme activity, inhibitor; setting = 1 µM; endpoint = inhibition; value = 6%
Compound = CC(C)=CC1OC(C)(C)C2C=C3C(=O)C(Cl)=CC(O)C3C3C(O)C4OC4C(=O)C132 (centres unmarked); test = cell-free assay, competition with immobilised ligand; setting = 10 µM; endpoint = remaining binding; value = 56%
Compound = NC(=O)[C@@H](O)C[C@H]1CCc2sc3ncnc(O[C@H]4CC[C@H](N5CCOCC5)CC4)c3c21; test = enzyme activity, inhibitor; setting = 10 µM; endpoint = inhibition; value = -1%
Compound = C=CC(=O)N1CCc2ccc(-n3c(=O)ccc4cnc5ccc(-c6cnn(C)c6)cc5c43)cc21; test = KINOMEscan; setting = 1 µM; how to read = baseline: DMSO control; endpoint = remaining binding; value = 100%
Compound = CNC(=O)C1CCN(c2cc(C)c(F)cc2NC(=O)c2ccc(-c3cc(O)ccc3C)c(C)c2)CC1; test = binding, competition with immobilised ligand; setting = 1 µM; endpoint = remaining binding; value = 94%

Some of these lines once more:
Compound = C=CC(=O)N1CCCC(n2c(=O)c3ncccc3n(Cc3ccc(Oc4ccccc4)cc3)c2=O)C1 (centres unmarked); test = cell-free assay, competition with immobilised ligand; setting = 1 µM; endpoint = remaining binding; value = 79%
Compound = CNC(=O)C1CCN(c2cc(C)c(F)cc2NC(=O)c2ccc(-c3cc(O)ccc3C)c(C)c2)CC1; test = binding, competition with immobilised ligand; setting = 1 µM; endpoint = remaining binding; value = 94%
Compound = Cc1cnc2nc1Nc1cccc(c1)COC/C=C/COCc1cc(ccc1OCCN1CCOCC1)N2; test = cell-free assay; setting = 0.1 µM; endpoint = remaining signal; value = 85%
